# Published values gathered from unrelated publications.
# Every numbered part comes from another study and shows a few of its results, in no order.

# Set 1
# Target: Probable WRKY transcription factor 33, N-terminal DNA-binding domain (WRKY33, Arabidopsis thaliana, UniProt Q8S8P5, residues 169-264)
# Technique: DNA-protein interaction ELISA
# Molecule type: double-stranded DNA, one strand shown
# Matrix: in vitro, bacterial lysate
# Tested at: not given
# Setting: whole dsDNA probe, crude lysate protein
# Reference: highest signal in screen
# Direction: higher = stronger binding
# Residues (chain): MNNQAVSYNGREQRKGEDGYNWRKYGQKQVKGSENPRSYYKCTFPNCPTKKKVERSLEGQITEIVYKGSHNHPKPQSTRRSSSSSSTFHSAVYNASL
Oligonucleotide,relative absorbance
AAAAAATACTGGCTGTCTCGTTCACAAAAA,31.6 % of maximum
AAAAAAAGTGGCCGCTAGTCAACTCAAAAA,36.4 % of maximum
AAAAAAAAGTGCCAACGTTCAAGAAAAA,24.3 % of maximum
AAAAAAATTGTATCATACTTCAGTTGAAAA,25.5 % of maximum
AAAAAACTGGCGACTGCCAGTGGTAGAAAA,22 % of maximum
AAAAAATGGTCGATCCGCATGCAGTTAAAA,26.2 % of maximum
AAAAAATGTCGGCTGTTAGGATATCGAAAA,27.8 % of maximum
AAAAAAACGCTATATATTGGTGCTAGAAAA,23.2 % of maximum
AAAAAAGGTCTGGACGATCACCGGGAAAAA,21.5 % of maximum
AAAAAATATTCCGCTTTTGGCTGAATAAAA,31 % of maximum
AAAAAAGCCATCATGGTTAGTGTACAAAAA,23.8 % of maximum
AAAAAAATTACGCGGGATCGCCAAAA,18.3 % of maximum
AAAAAATATGGCACTCGCCGCACATCAAAA,22 % of maximum
AAAAAATTCTAGCTTTTAACTTTAGCAAAA,25.1 % of maximum
AAAAAAATCTCACTCCTGGTCCCCATAAAA,16.4 % of maximum
AAAAAATGTCTAGACTCGGACATTCGAAAA,24.3 % of maximum

# Set 2
# Target: RNA binding protein fox-1 homolog 2, RRM domain, GST-SBP tag (RBFOX2, Homo sapiens, UniProt O43251-10, residues 100-194)
# Technique: RNA Bind-n-Seq
# Molecule type: RNA
# Matrix: in vitro
# Tested at: 365 nM
# Setting: natural RNA segment, single round, ends assumed
# Reference: no-protein control
# Direction: higher = stronger binding
# Target sequence (chain): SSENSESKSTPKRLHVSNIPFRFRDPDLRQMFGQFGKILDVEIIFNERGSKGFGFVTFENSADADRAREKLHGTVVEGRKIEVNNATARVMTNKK
Oligonucleotide,RBNS enrichment (R)
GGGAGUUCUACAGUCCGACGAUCAGCAAAUGAAAAAGUGCAGUUAAUUCAAGAACAGGAAUCCCUGUGUCCUUGCUGGGAUUUCCUUUUGGGAACCUGACUUUCCGACUCCAGAUCCUGCUGUCUGGAUCAGUUGGAAUUCUCGGGUGCCAA,0.384
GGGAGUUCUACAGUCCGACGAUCCCUUUGGUGUUAAGUGUCAUUGUUUAGUUUACCCUCUGUUCUCUAUGUUGUCCUAACAAGCCAACCCCAACCAACAAUUGUUAAGCUGCUCCUUAAAAAUGAAACAGGAGUGGAAUUCUCGGGUGCCAA,0.511
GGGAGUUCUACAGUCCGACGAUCUCUGCCUGGAGUCUGAGGGUGACUUGAACUUCUGCCAGUACAUCUGCAACUAGAACCCUGGUCGCCUUCCUCUAACUGGAGGGCAAGCCUUCCUUUUCUAGGGCCAAACUUGGAAUUCUCGGGUGCCAA,0.191
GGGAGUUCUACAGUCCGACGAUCUGCGGGACAGUCAUUCUUUACGUUCUCUCUUGAGCUGGUGAGAGAGGAGGAAGAGGGAAGUCAAGAGCAACCUCCAAGGCCUAUGUCAGCCUCUUCUCCUUGGGUCUUGGUGGAAUUCUCGGGUGCCAA,0.754
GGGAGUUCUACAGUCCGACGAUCUCAUGUGUUGUGAGUCAGAUCACACAGUCGAUAGGAUCAGUAUUUCAAUUCCAGAGCCCCUCCACUCUAACGCUAUGCUUUGCUUAUUAUUGCUACAGAGAUAACUGCCCUGGAAUUCUCGGGUGCCAA,0.532
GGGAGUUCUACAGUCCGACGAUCGCAUUUUUGGGAGUGUAUCUAUAGCCUGUUCUACUUUGUUAAUGGGGGAUAACAGCACAUCCUAGAUCAUGUGUGAACUUUGGGGUUUUUAAUUGCCCUUGGUAUCCUGAUGGAAUUCUCGGGUGCCAA,0.487
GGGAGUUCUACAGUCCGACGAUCAUGGCCCAGGCCAAGAGCUGUCAAAUGAAAAACUUUGUGCUGAAGCAGGUUUUUAGUAUGUAUAUCUUUUUGAUGGUAUGAAGAAUUUAUUUAGGCUUGACUGUUUUAAAUGGAAUUCUCGGGUGCCAA,2.03
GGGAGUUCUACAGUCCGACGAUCCACAGAUUUAGAAAUACAUUCUCACUGUCCAAAAUCAGCUUAAACACUGGCUCUGGCGAUGAGUCAUUGUGCAAUUAGAAUCAUAUCUUAUGAUUUAUUUUCUGUCAUUAUGGAAUUCUCGGGUGCCAA,0.289

# Set 3
# Target: Hepatocyte nuclear factor 3-alpha (Foxa1, Mus musculus, UniProt P35582, residues 1-468, full length assumed)
# Technique: EMSA with sequencing
# Molecule type: double-stranded DNA, one strand shown
# Matrix: in vitro
# Tested at: 10 and 20 nM
# Setting: whole designed probe, mean of two concentrations, ends assumed
# Reference: negative control set to 0
# Direction: higher = stronger binding
# Target sequence (chain): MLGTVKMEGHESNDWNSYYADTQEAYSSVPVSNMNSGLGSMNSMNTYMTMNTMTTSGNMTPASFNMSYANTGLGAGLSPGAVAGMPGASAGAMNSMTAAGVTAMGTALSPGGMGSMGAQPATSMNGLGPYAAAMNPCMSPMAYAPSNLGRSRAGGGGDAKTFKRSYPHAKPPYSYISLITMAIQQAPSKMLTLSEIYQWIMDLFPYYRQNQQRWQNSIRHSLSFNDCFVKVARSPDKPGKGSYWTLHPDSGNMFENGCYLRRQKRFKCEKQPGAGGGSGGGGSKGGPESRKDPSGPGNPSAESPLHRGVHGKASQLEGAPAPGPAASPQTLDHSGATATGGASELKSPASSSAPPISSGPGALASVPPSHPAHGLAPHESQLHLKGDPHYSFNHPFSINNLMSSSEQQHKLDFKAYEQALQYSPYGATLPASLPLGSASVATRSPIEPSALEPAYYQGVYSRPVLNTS
Oligonucleotide,normalised bound fraction [ratio]
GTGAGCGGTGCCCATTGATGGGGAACTTTACTTCTTATATTTCACTCTGGGTTGACCCTAGGGAACATAAAACCAGATTCTACTGATCTTCCCTTATCAGATGTTTGGTTTTCTCTAAGCAATCTTCTATCTGGGGAGCATGACAGGGTCATGACAGATTTCCCAGTGGGGACTGTGGAGACTGGCTGGAAGGCTATGAGTGAGTGAGCTGACATCCACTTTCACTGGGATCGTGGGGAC,0.0335
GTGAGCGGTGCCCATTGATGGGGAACATTGAATTATAAAGTATTCCAGATTCACTAAAACCACTAGAGTCACAGACATAGGCTTTCTATAAAATACAGTGTGCATTTGTCAGTCTTTCCTTGTTTACTTTCCTTTAGTCCCATTTTCACCACAGCTGGGTTACTTGGTGCCAACCAGAACTCTGCCTCCCTCCACCTTAAACTATAAATCTTTATGCAATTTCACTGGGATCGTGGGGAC,0.377
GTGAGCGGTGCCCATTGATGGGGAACGTGGGTAACTGAGAGAAAGCCATAAAGGTAAAGTGGCATGTTAATCACATCATATCGATGATACATACTATTCATATGATTTATGATTATTGAAGATGGCCTTGATGACCTTGCTGAGATAGTATTTGTCAGGTTTCTCCACTGTAAAACTCCCCCATTTCTATATCGTACTCTTTGAAGGAAGTGACAATGTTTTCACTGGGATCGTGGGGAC,-0.0502
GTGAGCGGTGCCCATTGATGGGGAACTCTTTCACTCAAGTGGTATATCCCACAGCCCTAAAGAAGCAAGGGAAATAAGAATTAGAACTAGACATCCCAGGAGACAAAGAATTCAACAAAGCAAACATTAACCAATCCCTTCACTATCACTTCCTGCTTACAGAAAATCTCTCTGGCTCAGGCCGGGCAGTGAGTTCATTTATTTCAACAAAATCAAAGATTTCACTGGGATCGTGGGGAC,0.362
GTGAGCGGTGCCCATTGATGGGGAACATCTTCCCCCTCTTCCTTGCCCCACCAGTTCACCTTCCCGGGTTATTTGCAGATAGGAAAATAAATAAAGCCGGCATTCGTTAACCCTCTTCTGGCGCAAACTGCTGTTTGCTCTGGATGAATCATGGTCCTTTGGCGACGCCAGGCTCCGGGAGAGCAAAGCACCGTGTCAGGGCCATGATCCGGGGTGGCCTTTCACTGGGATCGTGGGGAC,0.321

# Set 4
# Target: Centromere-binding protein 1, full length, His-tagged (CBF1, Saccharomyces cerevisiae, UniProt P17106, residues 1-351)
# Chain of UniProt P17106 (whole entry, looked up): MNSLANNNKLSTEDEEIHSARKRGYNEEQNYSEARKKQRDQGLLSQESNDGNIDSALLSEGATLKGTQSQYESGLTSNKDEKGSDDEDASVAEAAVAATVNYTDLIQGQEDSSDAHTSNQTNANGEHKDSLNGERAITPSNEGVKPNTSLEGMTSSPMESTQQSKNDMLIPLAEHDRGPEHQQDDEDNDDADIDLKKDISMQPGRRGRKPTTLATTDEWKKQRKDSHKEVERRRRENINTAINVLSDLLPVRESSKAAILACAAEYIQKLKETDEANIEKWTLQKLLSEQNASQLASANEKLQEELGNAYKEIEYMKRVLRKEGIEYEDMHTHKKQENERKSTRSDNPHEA
# Technique: competition protein-binding microarray
# Molecule type: double-stranded DNA, one strand shown
# Matrix: in vitro
# Tested at: 2 µM
# Setting: whole 60-bp probe, lowest competitor level
# Added: Pho4 competitor, 0.05 µM
# Direction: higher = stronger binding
Oligonucleotide,fluorescence intensity [a.u.]
AAGCAACAACACCGACCCGTGCCAGCGACATCTGCTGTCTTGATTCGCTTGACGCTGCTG,80.5
AAATTACTAAGTTGTCACGCTACTTACCCCGTATGAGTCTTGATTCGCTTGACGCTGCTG,208
CCGCTGTTTTATTAGCACGTGACGGATTGAAACGACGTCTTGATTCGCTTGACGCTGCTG,10600
TAAGCACCAAATGGAGACGTGGCCGCACCATAATCAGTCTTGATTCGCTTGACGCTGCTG,59.2
CGAGAATGTCCGGAACACATGTCAATATTTGCTCCTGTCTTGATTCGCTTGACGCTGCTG,181
AAAGCGGTAATTTGGCTGGTGGGTGCAGATATCTATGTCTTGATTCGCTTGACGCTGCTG,78.9
GAACAAGATTTTTTGCACGTGGTGAGGATGATGAGGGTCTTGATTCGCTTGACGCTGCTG,1830
TTGTTTCTAGACCACCACGTGTGGATTGCAAAACAAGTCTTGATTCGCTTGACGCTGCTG,765
GCAGGGAGCGTCCAACACGTCAGCGTCAATTCCTTCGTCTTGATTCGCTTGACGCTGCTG,57.5
TCAATCTTTGTTCGTCAGGTGGGATACCTTCCTTGTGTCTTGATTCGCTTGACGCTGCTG,157
ATAGCTCAAGTACTGTTCGTGGGTACCTTAAGCCTGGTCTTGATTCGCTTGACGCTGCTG,115
GAGCAGCGCCCATACAATGTGCGGGCAAGATTTGCCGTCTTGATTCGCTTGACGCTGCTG,55.9
CTTCTGTAAATTTGACCCGTGGGTGGACGCGCCCCGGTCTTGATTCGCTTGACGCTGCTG,76.3
AAATTACTAAGTTGGTTAGTGGGTGACGCCGTATGAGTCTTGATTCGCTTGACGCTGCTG,62.8
CTAACGAAGGTTTTTCACGTGGAGTACAAGCCAAGTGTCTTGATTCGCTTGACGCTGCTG,527
CGTCCTAGTGATTGCTACGTGGGTGCCATGAGGAAGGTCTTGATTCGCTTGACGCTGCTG,91.1
GAACTGCCACCTCACCACGTGTGTTCCTCGCAAGCCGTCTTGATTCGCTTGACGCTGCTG,608
AAAAGTGGGAGCTCATTCGTGATGGGGAAGCAGAGAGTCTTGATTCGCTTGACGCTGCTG,72
CAAGCATAGCGTATACACGTGCAAACACAAGCATACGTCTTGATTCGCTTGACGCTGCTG,1310

# Repeated from above (set 1):
Oligonucleotide,relative absorbance
AAAAAATTCTAGCTTTTAACTTTAGCAAAA,25.1 % of maximum
AAAAAAAAGTGCCAACGTTCAAGAAAAA,24.3 % of maximum
AAAAAATACTGGCTGTCTCGTTCACAAAAA,31.6 % of maximum
AAAAAAATTGTATCATACTTCAGTTGAAAA,25.5 % of maximum
